Assay results from different studies.
A part holds a random share of what one study measured.

Block 1 — technique: universal PBM; molecule type: double-stranded DNA, one strand shown; medium: in vitro; tested at: not given; direction: higher = stronger binding; measurement: E-score
Target: Sal-like protein 4, full length isoform B (SALL4, Homo sapiens, UniProt Q9UJQ4-2, residues 1-616)
Notes: 8-mer, flanks averaged, mean of replicates
ATCGTAGA: 0.165
CTGCCGCA: -0.17
GCAGGACA: -0.148
ACCTTGCG: -0.123
TATGGCGA: -0.0734
CCTAACCG: -0.233
AATTAAGG: 0.19
CGAGCTCG: -0.25
CGAGGTAA: -0.123
CTAGCATA: 0.194
ACCGCCGT: -0.217
AATGCGCC: -0.149
ACCTAGTG: 0.0284
CCAGTAAC: -0.0565
ATGAATCG: 0.128
TAAGCAAA: 0.17
AGCGGCTC: -0.33
CCAAGGGC: -0.166
CGAAAGTC: -0.0961
CTGCGAAA: -0.0163
CCCATCCA: -0.00449
GCAGGGTA: 0.0182
AGAGTCTG: -0.234
AATAATCC: 0.335
AACCGCAA: -0.0436

Block 2 — technique: RNA Bind-n-Seq; molecule type: RNA; medium: in vitro; tested at: 100 nM; relative to: input RNA pool; direction: higher = stronger binding; measurement: bound/input enrichment
Target: RING finger protein unkempt homolog, zinc fingers 1-6, SBP tag (UNK, Homo sapiens, UniProt Q9C0B0, residues 30-357)
UniProt Q9C0B0, sequence (30-357, looked up): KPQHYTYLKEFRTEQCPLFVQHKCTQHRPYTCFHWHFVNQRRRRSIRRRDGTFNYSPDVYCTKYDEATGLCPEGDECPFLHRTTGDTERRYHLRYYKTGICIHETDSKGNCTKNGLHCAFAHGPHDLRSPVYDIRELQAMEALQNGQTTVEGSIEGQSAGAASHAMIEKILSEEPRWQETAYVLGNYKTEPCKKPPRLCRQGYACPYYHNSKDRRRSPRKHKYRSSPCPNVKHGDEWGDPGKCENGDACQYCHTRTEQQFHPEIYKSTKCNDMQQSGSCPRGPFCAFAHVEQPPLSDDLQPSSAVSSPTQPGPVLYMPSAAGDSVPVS
Notes: RNA with constant flanks, vertebrate orthologous sites, ends assumed
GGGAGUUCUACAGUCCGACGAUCGAACCCCAGUUUGUAUGUACAUUAUUCACAUUCCUCUGUUGUAUUUGGGAAAAAAGACAUUUUAGCCUUUUUAAGGUUGUUAAUUUAAUUUCAUGUUAUUUGGUUGCAUGAAGUUGCCCUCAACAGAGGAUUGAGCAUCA: 0.347 ratio
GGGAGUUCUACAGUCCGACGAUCCUGUUGUUAAGCACUGUGUUCCAGACCGUGUCUGACUUUAGUGUAACCUAGGAGAUUUUAUAGUUUUAUUUUAAUGAAAUCCUGCUUGACGCAGAACAGCGGGGAGAGCAGUGUCUUCUACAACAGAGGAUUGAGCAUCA: 2.04 ratio
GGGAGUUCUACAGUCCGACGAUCUUUACAAUCUACUUAAGUAGGUUUUUACAUACCACAUGAAGCCUUCAUUUUACAUAUUUACAGCUUUUCUGUUUUCCAGAUGAAAUCAAAGAAUUUAAUGCUCAAAGUUAAAUGUGGUCUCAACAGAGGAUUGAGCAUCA: 0.35 ratio
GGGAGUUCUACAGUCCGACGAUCCCUUCUGUAGAGAACAAUUUUCACUGAAGCCAUUGGCAAAUUCCCCCCACCAGACUUUUCUUUGGAGCUCUUUCAUUUCGUACAAUCUUGCUGUGUUGGUCAUUGUUAGCCCUGAAUCCACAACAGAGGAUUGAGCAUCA: 0.823 ratio
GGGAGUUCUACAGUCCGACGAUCGUGAGGGUCUACUGACCACUCACUGUUCUGUCUGGUAUCUGUAAACACUCUUUUUGUUCUUAGUCUUUUUCUUGUAUAAUUGAUGUUCUUUAAAAUUGUUAAUGUAUAACAGGGCUUAUGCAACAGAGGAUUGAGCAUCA: 2.99 ratio
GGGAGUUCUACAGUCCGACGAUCGUGUUUUGGUACCACUUGAUGUACCAAUACUCAUCCUUUUUUCAUUAUACCAACUAUCAUUAGAAGUAGGAGUUUAAUAUUUUUAAAAAUUUUACAUUGCUGUAUAUUCAAAAUUUUAAACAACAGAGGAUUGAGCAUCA: 0.63 ratio
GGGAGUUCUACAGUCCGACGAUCUAGUACUUAAGCCAACAACAGUUCUAAAAUGCUAUUUAUUUGUGUCUGUAAGAUUGUACAUAUACUACCAACCUCAUACUGUUGUGGAUUUUUUUUCUCACAAGCUUGAGUUUAGGUUUUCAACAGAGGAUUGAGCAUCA: 0.507 ratio
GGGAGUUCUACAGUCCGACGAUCUUGGGAACAGCUCUCCAAACAGGAAUAGUAGUAAAAAAAAUAAGCAAAAUGAUAUUUGUAUAGAAAAAACAGAAGUUAAAUCAUGUAAAGUAAAUGCUACCAACCUUCCAGGUCCUAAAGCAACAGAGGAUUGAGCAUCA: 0.892 ratio
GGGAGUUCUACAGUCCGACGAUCAAGCCCUAGUUCUUGAACCAACACCCAUAAAAGAUUUAGAAAAAAGUUUACAACAUAAUCUAGUUUACUGAAGACGCCUUGUGCUAGAAUACUUUUUAAAAAGUAUUUUUGAAUACCAUUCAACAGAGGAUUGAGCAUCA: 0.495 ratio
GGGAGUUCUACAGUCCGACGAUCAUAUGUGGGGUAGCCUUGGCCCCUGCCUUGGCCUUACCUCUCCUCCCUGUCACCUGUCCCUAGUUAUUUUUUUUUUAACCACCACGUGAUUAUGGUCGGUGCUGCCUUUUCCCGACCUGCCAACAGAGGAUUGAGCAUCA: 9.31 ratio
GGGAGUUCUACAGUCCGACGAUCAUCCCUCAGUGACAGUAUGCCAUCUGUAGCAGAUUCGCACUCUAGUCAUUUUUCUGAAUUUAGUUGUUCUGAUCUAGAAAGCAUGAAAACUUCCUGUAGUCAUGGUUCCAGUGAUUAUCACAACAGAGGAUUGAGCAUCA: 0.628 ratio

Block 3 — technique: RNA Bind-n-Seq; molecule type: RNA; medium: in vitro; tested at: 365 nM; relative to: no-protein control; direction: higher = stronger binding; measurement: RBNS enrichment (R)
Target: RNA binding protein fox-1 homolog 2, RRM domain, GST-SBP tag (RBFOX2, Homo sapiens, UniProt O43251-10, residues 100-194)
Notes: natural RNA segment, single round, ends assumed
Target sequence (chain): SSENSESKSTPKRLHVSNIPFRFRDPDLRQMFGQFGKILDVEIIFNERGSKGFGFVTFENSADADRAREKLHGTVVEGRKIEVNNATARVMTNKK
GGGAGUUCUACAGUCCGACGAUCUUGCUGUAGCUGAGACUUGUCUAGAGUCCUUUGUUUUGCACUUUUGACCCACCCCUUCCUGGAUCACUCCUUUGCACUCCACUCCCCUCGUUCUGUCACUUUGAACGAAGUGGAAUUCUCGGGUGCCAA: 0.601
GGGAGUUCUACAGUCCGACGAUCAUUCCUAAGUUCCUAUCUCCUUCACACUGUACCUAGGGUGAUGGUUUCGGUCAGGCCAUCUCCAGCAGCAUGUCUCUGCUGUGUGGAUGGAGGCCAAGGUCAGAAAGAUGUGGAAUUCUCGGGUGCCAA: 1.26
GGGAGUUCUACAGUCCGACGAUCAUCUCACACUCAUGCAUUGUCCUCUUUUUAUUUAGAUUGGCAGUGUAGGGAGUUGUGGGUAGUGGGGAAGAGGGUUAGGAGGGUUUCAUUGUCUGUGAAGUGAGACCUUCUGGAAUUCUCGGGUGCCAA: 0.8
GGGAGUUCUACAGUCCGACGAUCCUUCAUUAGAGCUAUCAAUACUGAGUGGCUAGAACUCCAGGGACUGUGUGGGUUGCUCUGUUUUCUUACUGGAAUGCCUUCUCCGGAACUGUUGCGGUUUCAUUCUCUGUUGGAAUUCUCGGGUGCCAA: 1.07
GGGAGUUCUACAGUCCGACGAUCAAGCUGAAAUUGCGUUCUAAGAGGUGAAGUGAUUUUUUUUCUGAAACUCACACAACUAGGAAGUGGCUGAGUCAGGACUUGAACCCAGGUCUCCCUGGAUCAGAACAGGAUGGAAUUCUCGGGUGCCAA: 0.37
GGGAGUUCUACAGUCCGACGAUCAACGAAGAGCUUCUAUGAAAACCCUCACCUUUCCAUGUCCCAAAAACCAACACAAGUCCCUGGGGCGGGUGGAGAAGAUGGUGGAGCCCCGUGAGACGGGGCUUCUGUGUUGGAAUUCUCGGGUGCCAA: 0.301
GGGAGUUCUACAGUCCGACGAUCUCUGACUCACAUGAAGUUACCUGUUUCUGUUAGCUUUUGGGGAGACUCUUGGACUCAUAGGGCAGAAUGAAGGGCUGUAAAGAUGAGGGGGUAUUUCUUCUACCCUAUCUUGGAAUUCUCGGGUGCCAA: 0.559
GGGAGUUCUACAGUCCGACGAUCUAAAUAUCCCUCAACAGACACAGGCCUGGUACCUGGGUAAAAGUUGCAGCAUCCCACCAUCCUCCAGACAGACCACCUGACCCCUUCUCAACUCUGUAACAUGGACGCAAUGGAAUUCUCGGGUGCCAA: 2.24
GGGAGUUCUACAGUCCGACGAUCAACCAGAUUGAUCCAAUUGGCCAUGGGAGCUUAGGCCAUAGUCUUGGAAGUGAGCAGGACAAAGACCAUGUUUUAGAGAUGUGAUAACUUCCUAGGACUAAGUUUACUAAUGGAAUUCUCGGGUGCCAA: 0.409

Block 4 — technique: protein binding microarray; molecule type: double-stranded DNA, one strand shown; medium: in vitro; tested at: not given; relative to: not given; direction: higher = stronger binding; measurement: E-score
Target: Histone acetyltransferase KAT6A, winged helix 1, GST fusion (KAT6A, Homo sapiens, UniProt Q92794, residues 1-85)
Notes: 8-mer, flanks averaged, mean of 2 arrays, mostly near background
Residues (chain): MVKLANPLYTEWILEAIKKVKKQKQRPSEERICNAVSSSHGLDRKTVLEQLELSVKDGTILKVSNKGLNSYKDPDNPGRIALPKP
ACAAGGAT: -0.197
ACAGTTCT: 0.0129
GACACGGC: 0.348
CGCAGTTC: 0.247
CGTTCAAC: 0.0823
CAGTCGAC: -0.0177
CATCGCAG: 0.0194
GAATCAAA: -0.125
AGACACGG: 0.19
AGATATGA: -0.167
CCATTCAC: -0.0769
GATCACAA: -0.142
GGAACATA: -0.0646
CAGCCTAC: -0.11
CTCGACAG: -0.241
ACTCGCAC: 0.149
AGCTGCAG: -0.181
AGCGGTAA: 0.313
AGGACATC: 0.0649
GATAAAAA: -0.095
